Assay results gathered from unrelated publications.
Lines come from different studies, so protocols differ. Several values in a cell are separate wells, animals, samples, runs or records. ± marks the error that the study gave.
LRP6 E1 domain: Low-density lipoprotein receptor-related protein 6, E1 domain (LRP6, Homo sapiens, UniProt O75581)
UniProt O75581, sequence (whole entry, looked up): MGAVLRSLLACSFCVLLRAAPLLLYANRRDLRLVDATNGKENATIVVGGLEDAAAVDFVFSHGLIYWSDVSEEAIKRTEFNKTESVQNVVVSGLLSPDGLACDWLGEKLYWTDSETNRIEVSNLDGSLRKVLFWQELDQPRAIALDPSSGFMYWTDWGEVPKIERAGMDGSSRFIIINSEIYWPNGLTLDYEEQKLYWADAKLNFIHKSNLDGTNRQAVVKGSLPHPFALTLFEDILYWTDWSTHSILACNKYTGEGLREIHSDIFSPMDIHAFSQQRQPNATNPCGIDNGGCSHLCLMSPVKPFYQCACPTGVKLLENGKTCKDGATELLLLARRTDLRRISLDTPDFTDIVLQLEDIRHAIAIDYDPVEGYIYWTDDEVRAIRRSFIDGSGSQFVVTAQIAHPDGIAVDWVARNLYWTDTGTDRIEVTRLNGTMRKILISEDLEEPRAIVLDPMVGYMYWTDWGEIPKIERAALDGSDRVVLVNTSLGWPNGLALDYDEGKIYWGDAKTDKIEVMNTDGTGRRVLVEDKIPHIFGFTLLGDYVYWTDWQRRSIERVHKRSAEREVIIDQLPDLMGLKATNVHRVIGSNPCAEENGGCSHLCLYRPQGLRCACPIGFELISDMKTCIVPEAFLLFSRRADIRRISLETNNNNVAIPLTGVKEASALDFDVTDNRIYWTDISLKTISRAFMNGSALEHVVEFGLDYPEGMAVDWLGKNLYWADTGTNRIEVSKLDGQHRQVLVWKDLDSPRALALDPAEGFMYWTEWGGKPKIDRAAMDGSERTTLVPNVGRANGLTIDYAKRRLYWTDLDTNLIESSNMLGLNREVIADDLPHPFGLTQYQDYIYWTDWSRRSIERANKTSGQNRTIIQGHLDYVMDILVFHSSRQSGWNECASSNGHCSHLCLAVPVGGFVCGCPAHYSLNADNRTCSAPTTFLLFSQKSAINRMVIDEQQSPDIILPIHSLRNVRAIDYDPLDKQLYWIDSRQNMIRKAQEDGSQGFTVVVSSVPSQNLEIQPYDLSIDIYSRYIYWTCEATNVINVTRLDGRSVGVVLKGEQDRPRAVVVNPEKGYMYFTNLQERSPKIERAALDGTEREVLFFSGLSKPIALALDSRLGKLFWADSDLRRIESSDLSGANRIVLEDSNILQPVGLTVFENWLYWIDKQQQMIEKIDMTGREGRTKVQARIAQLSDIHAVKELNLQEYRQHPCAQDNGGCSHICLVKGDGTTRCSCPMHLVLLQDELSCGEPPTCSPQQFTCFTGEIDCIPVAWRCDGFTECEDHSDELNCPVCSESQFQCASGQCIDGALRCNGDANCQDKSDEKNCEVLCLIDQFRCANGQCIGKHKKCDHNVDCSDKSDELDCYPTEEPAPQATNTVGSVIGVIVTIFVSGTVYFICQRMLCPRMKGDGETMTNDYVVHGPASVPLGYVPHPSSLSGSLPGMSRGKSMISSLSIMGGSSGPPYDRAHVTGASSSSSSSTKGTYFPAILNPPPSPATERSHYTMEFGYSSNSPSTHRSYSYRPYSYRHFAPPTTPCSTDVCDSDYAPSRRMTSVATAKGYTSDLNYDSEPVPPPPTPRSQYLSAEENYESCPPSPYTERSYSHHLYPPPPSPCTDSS
YWHAZ: 14-3-3 protein zeta/delta (YWHAZ, Homo sapiens, UniProt P63104)
UniProt P63104, sequence (whole entry, looked up): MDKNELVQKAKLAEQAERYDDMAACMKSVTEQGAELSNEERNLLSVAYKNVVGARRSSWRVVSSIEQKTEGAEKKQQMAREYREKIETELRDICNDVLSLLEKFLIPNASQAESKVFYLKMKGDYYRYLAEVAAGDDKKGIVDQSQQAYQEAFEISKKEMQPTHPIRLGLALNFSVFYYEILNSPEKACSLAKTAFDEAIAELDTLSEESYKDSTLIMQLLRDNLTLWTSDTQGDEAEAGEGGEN
F-box only protein 22: F-box only protein 22 (Homo sapiens, UniProt Q8NEZ5)
UniProt Q9H4M9, sequence (whole entry, looked up): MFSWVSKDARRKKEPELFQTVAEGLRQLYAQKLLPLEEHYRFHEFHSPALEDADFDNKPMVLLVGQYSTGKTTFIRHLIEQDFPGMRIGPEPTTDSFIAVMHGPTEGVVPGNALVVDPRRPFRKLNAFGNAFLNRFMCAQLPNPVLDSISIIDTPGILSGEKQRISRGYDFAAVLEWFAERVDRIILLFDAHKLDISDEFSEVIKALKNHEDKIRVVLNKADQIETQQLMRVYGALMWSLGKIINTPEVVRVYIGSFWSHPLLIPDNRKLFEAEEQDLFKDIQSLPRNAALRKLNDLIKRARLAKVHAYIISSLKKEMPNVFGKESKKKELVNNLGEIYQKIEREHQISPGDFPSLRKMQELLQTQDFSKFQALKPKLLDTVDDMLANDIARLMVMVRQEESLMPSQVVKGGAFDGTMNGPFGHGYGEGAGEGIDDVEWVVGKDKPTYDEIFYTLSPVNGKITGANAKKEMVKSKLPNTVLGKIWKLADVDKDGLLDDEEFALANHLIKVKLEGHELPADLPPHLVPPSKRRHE
UniProt Q8NEZ5, sequence (whole entry, looked up): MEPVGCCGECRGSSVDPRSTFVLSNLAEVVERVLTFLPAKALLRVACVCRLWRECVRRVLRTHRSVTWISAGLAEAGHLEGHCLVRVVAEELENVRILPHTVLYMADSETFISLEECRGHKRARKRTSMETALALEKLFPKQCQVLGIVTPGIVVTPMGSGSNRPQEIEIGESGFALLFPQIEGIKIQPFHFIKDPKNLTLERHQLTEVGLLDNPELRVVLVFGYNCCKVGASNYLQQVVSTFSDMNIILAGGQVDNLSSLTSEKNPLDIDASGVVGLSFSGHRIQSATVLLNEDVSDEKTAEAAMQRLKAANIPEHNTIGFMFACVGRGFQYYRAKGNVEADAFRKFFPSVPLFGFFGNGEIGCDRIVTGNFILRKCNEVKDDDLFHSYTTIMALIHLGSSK
UniProt Q15172, sequence (whole entry, looked up): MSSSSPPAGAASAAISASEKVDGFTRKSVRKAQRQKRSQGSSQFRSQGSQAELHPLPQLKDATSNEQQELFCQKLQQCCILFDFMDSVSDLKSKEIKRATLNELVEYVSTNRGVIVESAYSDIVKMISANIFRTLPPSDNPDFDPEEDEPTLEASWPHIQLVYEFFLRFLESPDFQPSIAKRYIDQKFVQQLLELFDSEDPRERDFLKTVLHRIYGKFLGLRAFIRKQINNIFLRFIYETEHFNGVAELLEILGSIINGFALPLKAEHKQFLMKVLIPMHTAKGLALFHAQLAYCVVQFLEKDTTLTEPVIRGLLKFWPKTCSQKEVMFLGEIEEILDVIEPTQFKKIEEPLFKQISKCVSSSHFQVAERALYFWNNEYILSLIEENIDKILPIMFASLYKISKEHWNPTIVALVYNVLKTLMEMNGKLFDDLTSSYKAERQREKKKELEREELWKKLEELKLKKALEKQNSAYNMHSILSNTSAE
UniProt Q14145, sequence (whole entry, looked up): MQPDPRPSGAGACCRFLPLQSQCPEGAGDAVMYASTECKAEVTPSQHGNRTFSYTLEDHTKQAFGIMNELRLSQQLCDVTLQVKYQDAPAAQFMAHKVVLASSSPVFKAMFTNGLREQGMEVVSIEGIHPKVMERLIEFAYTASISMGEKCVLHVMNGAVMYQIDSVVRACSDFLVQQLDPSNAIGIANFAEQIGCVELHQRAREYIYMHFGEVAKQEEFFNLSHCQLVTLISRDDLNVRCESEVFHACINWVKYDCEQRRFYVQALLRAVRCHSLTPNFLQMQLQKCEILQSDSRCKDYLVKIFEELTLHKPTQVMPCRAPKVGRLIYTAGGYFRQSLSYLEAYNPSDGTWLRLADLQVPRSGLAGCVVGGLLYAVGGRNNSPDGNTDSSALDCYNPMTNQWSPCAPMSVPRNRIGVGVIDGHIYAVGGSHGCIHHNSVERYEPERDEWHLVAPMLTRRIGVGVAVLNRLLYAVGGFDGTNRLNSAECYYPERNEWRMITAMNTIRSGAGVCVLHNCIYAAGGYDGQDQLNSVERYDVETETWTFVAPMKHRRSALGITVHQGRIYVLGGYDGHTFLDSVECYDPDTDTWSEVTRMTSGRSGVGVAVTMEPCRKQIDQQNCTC
UniProt P46108, sequence (whole entry, looked up): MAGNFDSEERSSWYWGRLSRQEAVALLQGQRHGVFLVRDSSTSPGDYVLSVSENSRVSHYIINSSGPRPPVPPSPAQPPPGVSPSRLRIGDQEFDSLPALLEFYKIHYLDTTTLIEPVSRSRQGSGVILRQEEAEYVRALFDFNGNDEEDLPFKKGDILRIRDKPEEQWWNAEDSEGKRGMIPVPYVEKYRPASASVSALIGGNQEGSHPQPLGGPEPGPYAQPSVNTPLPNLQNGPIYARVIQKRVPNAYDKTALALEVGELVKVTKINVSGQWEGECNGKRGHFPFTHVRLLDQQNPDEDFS
UniProt Q02750, sequence (whole entry, looked up): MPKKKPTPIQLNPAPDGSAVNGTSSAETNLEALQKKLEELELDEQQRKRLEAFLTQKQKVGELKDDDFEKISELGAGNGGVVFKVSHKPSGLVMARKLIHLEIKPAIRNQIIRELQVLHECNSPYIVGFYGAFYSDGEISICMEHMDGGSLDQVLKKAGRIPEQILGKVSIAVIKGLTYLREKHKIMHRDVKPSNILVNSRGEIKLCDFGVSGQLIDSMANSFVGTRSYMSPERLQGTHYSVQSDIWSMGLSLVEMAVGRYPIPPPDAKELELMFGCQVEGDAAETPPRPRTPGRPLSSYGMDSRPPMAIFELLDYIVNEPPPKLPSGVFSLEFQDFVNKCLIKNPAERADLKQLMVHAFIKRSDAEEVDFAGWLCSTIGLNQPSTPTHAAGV
UniProt Q9H7M9, sequence (whole entry, looked up): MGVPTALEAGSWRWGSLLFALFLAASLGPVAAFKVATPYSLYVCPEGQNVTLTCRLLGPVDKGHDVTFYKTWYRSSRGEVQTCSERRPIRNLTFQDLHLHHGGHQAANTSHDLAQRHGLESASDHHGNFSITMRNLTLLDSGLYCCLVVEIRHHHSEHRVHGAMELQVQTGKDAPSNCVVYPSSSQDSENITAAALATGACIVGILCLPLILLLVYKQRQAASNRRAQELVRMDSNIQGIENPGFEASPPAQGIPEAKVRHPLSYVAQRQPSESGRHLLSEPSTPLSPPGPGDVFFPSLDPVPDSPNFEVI

CC(=O)N[C@@H](Cc1ccc(O)cc1)C(=O)N[C@@H](CC(N)=O)C(=O)N1CCC[C@H]1C(=O)N[C@@H](Cc1ccccc1)C(=O)N[C@@H](CCC(=O)O)C(=O)N[C@@H](CCC(=O)O)C(=O)NCC(=O)NCC(N)=O
Kd (EH domain-containing protein 1, EH domain (Homo sapiens, UniProt Q9H4M9); peptide binding, ITC; 20 °C, 0 mM NaCl): 5.99 µM and 5.24 µM and 5.65 µM

C[n+]1cccc(C(N)=O)c1
Kd (Nicotinamide N-methyltransferase, SAH-bound (Rattus norvegicus, UniProt A0ABK0M0V0); binding, surface plasmon resonance; 37 °C, together with: SAH): 0.794 µM

CC(C)C[C@@H]1NC(=O)[C@@H]2CSSC[C@@H](C(=O)NCC(=O)O)NC(=O)[C@H](Cc3ccccc3)NC(=O)CNC(=O)[C@H](CC(N)=O)NC(=O)[C@@H]3CCCN3C(=O)CNC(=O)[C@@H]3CSSC[C@H](NC(=O)[C@H](CCCNC(=N)N)NC(=O)[C@H](CC(N)=O)NC(=O)[C@H](Cc4c[nH]cn4)NC(=O)[C@H](CCCCN)NC(=O)[C@H](C)NC(=O)CNC(=O)[C@H](Cc4c[nH]cn4)NC(=O)[C@H](C)NC(=O)[C@H](CO)NC(=O)[C@H](CCC(N)=O)NC(=O)[C@@H](NC(=O)CN)CSSC[C@H](NC(=O)CNC(=O)[C@H](C)NC1=O)C(=O)N[C@@H](C(C)C)C(=O)N3)C(=O)N[C@@H](CCCCN)C(=O)N[C@@H](CCC(N)=O)C(=O)N[C@@H](CC(=O)O)C(=O)N[C@@H](CO)C(=O)N[C@@H](CC(=O)O)C(=O)N2
Kd (LRP6 E1 domain; binding, SPR; pH 7.5): > 1 µM

CC[C@H](C)[C@H](NC(=O)[C@@H]1CCCN1C(=O)[C@H](CO)NC(=O)[C@H](Cc1ccccc1)NC(=O)CNC(=O)[C@H](CO)NC(=O)[C@H](Cc1ccccc1)NC(=O)[C@H](Cc1ccccc1)NC(=O)[C@H](CO)NC(=O)[C@@H](N)[C@@H](C)O)C(=O)N[C@@H](CCC(=O)O)C(=O)N[C@@H](CCC(=O)O)C(=O)N[C@@H](CC(=O)O)C(=O)N[C@@H](C)C(=O)N[C@@H](Cc1c[nH]cn1)C(=O)O
Kd (Serine/threonine-protein phosphatase 2A 56 kDa regulatory subunit alpha isoform (Homo sapiens, UniProt Q15172); binding, bead-based Langmuir fit; pH 7.5): 14.5 µM

CC(=O)N[C@@H](CCC(=O)O)C(=O)N[C@@H](CCC(=O)O)C(=O)N[C@@H](CCC(=O)O)C(=O)N[C@@H](Cc1c[nH]c2ccccc12)C(=O)N[C@@H](C)C(=O)N[C@@H](CCCNC(=N)N)C(=O)N[C@@H](CCC(=O)O)C(=O)N[C@@H](CC1CCCCC1)C(=O)NCC(=O)N[C@@H](C)C(=O)N[C@@H](CCC(N)=O)C(=O)N[C@@H](CC(C)C)C(=O)N[C@@H](CCCNC(=N)N)C(=O)N[C@@H](CCCNC(=N)N)C(=O)N[C@@H](C)C(=O)N[C@@H](C)C(=O)N[C@@H](CC(=O)O)C(=O)N[C@@H](CC(=O)O)C(=O)N[C@@H](CC(C)C)C(=O)N[C@@H](CC(N)=O)C(=O)N[C@@H](C)C(=O)N[C@@H](CCC(N)=O)C(=O)N[C@@H](Cc1ccc(O)cc1)C(=O)N[C@@H](CCC(=O)O)C(=O)N[C@@H](CCCNC(=N)N)C(=O)N[C@@H](CCCNC(=N)N)C(=O)N[C@@H](CCCNC(=N)N)C(N)=O
Kd (Induced myeloid leukemia cell differentiation protein Mcl-1 homolog, residues 152-308 (Mus musculus, UniProt P97287); binding, SPR; 0.2% DMSO): 0.0143 µM

COc1ccccc1C(c1ccccc1)C1CCCN1C(=O)CNC(=O)[C@@H]1CCCN1C(=O)[C@H](CC(C)C)NC(=O)[C@H](COP(=O)(O)O)NC(=O)[C@@H]1CCCN1C(=O)[C@@H](NC(=O)[C@H](CCCNC(=N)N)NC(C)=O)[C@@H](C)O (stereo partly drawn)
Kd (YWHAZ; isothermal titration calorimetry): 13.6 ± 2.46 µM

Oc1ccc(-c2nc(-c3ccc(OC4CCCC4)cc3)no2)cc1
Kd (cspC (Clostridioides difficile, UniProt Q185C0)): 88 ± 10 µM

CC(C)C[C@H](NC(=O)[C@H](CCCNC(=N)N)NC(=O)[C@H](CC(C)C)NC(=O)[C@H](CO)NC(=S)Nc1ccc2c(c1)C(=O)OC21c2ccc(O)cc2Oc2cc(O)ccc21)C(=O)N[C@@H](CCCCN)C(=O)N[C@@H](CS)C(=O)NCC(=O)N[C@@H](CCP(=O)(O)O)C(=O)NCC(=O)N1CCC[C@H]1C(=O)N[C@H](C(=O)N[C@@H](Cc1c[nH]c2ccccc12)C(=O)N[C@@H](CC(C)C)C(=O)N[C@H](C(=O)N1CCC[C@H]1C(=O)N[C@@H](CCCNC(=N)N)C(=O)O)C(C)C)C(C)C
Kd (YWHAZ; binding, fluorescence anisotropy; pH 7.5, FITC-labelled phosphopeptide titration): 70.7 µM

CC(CO)C1CN2C(=O)[C@H](CC(=O)O)NC(=O)CC(CC3CC3)NC(=O)[C@H](CCC(=O)O)NC(=O)CNC(=O)[C@H]([C@@H](C)O)NC(=O)[C@H](CCC(=O)O)NC(=O)[C@@H]2C1(F)F (stereo partly drawn)
Kd (Kelch-like ECH-associated protein 1 (KEAP1, Homo sapiens, UniProt Q14145); microscale thermophoresis): 0.0071 ± 0.0002 µM

CC(C)C[C@H](NC(=O)CNC(=O)[C@H](C)NC(=O)[C@H](CC(=O)O)NC(=O)[C@H](CC(=O)O)NC(=O)[C@H](C)NC(=O)[C@@H]1CCCN1C(=O)[C@H](CCCCN)NC(=O)CNC(=O)[C@@H]1CCCN1C(=O)[C@@H]1CCCN1C(=O)[C@@H]1CCCN1C(=O)[C@H](CCC(=O)O)NC(=O)CN)C(=O)N[C@@H](C)C(=O)O
Kd (F-box only protein 22; binding, SPR): 32 µM

CC(C)C[C@H](NC(=O)[C@H](CCCCN)NC(=O)[C@H](Cc1c[nH]c2ccccc12)NC(=O)[C@H](Cc1ccccc1)NC(=O)[C@H](CO)NC(=O)[C@H](Cc1c[nH]c2ccccc12)NC(=O)CNC(=O)[C@@H]1CCCN1C(=O)[C@@H](N)CCCNC(=N)N)C(=O)N[C@@H](Cc1c[nH]cn1)C(=O)N[C@@H](C)C(=O)N1CCC[C@H]1C(=O)O
Kd (V-type immunoglobulin domain-containing suppressor of T-cell activation, IgV domain (VSIR, Homo sapiens, UniProt Q9H7M9); binding, microscale thermophoresis): 0.16 µM

CC(C)C[C@H](NC(=O)CNC(=O)[C@H](C)NC(=O)[C@H](CC(=O)O)NC(=O)[C@H](CC(=O)O)NC(=O)[C@H](C)NC(=O)[C@@H]1CCCN1C(=O)[C@H](CCCCN)NC(=O)CNC(=O)[C@@H]1CCCN1C(=O)[C@@H]1CCCN1C(=O)[C@@H]1CCCN1C(=O)[C@H](CCC(=O)O)NC(=O)[C@H](C)N)C(=O)N[C@H](C(=O)O)C(C)C
Kd (F-box only protein 22; binding, SPR): 29 µM

CC[C@H](C)[C@@H]1NC(=O)[C@H](C)NC(=O)[C@H](CCCCN)NC(=O)[C@@H](NC(=O)CN)CSSC[C@@H]2NC(=O)CNC(=O)[C@H](C)NC(=O)[C@H](CC(C)C)NC(=O)[C@@H]3CSSC[C@@H](C(=O)NCC(=O)O)NC(=O)[C@H](Cc4ccccc4)NC(=O)CNC(=O)[C@H](CC(N)=O)NC(=O)[C@@H]4CCCN4C(=O)CNC(=O)[C@H](CSSC[C@H](NC(=O)[C@H](CCCNC(=N)N)NC(=O)[C@H](CCC(N)=O)NC(=O)[C@@H]4CCCN4C(=O)[C@H](CCCCN)NC(=O)[C@H](CC(C)C)NC(=O)[C@H](CC(C)C)NC(=O)[C@H](CC(N)=O)NC1=O)C(=O)N[C@@H](CCCCN)C(=O)N[C@@H](CCC(N)=O)C(=O)N[C@@H](CC(=O)O)C(=O)N[C@@H](CO)C(=O)N[C@@H](CC(=O)O)C(=O)N3)NC(=O)[C@H](C(C)C)NC2=O
Kd (LRP6 E1 domain; binding, SPR; pH 7.5): 0.366 µM

CC[C@H](C)[C@H](NC(=O)[C@H](CC(=O)O)NC(=O)[C@H](CCCNC(=N)N)NC(=O)[C@H](C)NC(=O)c1ccc2c(c1)C(=O)OC21c2ccc(N(C)C)cc2Oc2cc(N(C)C)ccc21)C(=O)N[C@@H](Cc1c[nH]cn1)C(=O)N[C@@H](Cc1c[nH]cn1)C(=O)N[C@H](C(=O)N[C@@H](CC(=O)O)C(=O)N[C@@H](Cc1ccc(O)cc1)C(=O)N[C@@H](Cc1ccc(OP(=O)(O)O)cc1)C(=O)N[C@@H](CCCCN)C(=O)N[C@@H](CCCCN)C(=O)N[C@H](C(=O)N[C@H](C(=O)N[C@@H](CC(N)=O)C(=O)NCC(=O)N[C@@H](CCCNC(=N)N)C(=O)N[C@@H](CC(=O)O)C(=O)O)[C@@H](C)O)[C@@H](C)O)[C@@H](C)CC
Kd (Adapter molecule crk, SH2 domain (Homo sapiens, UniProt P46108); binding): 1.11 µM

O=C(N[C@@H]1c2ccccc2C[C@H]1N1CCCC1)c1ccc(-c2ccnc3[nH]ccc23)nc1
Kd (Dual specificity mitogen-activated protein kinase kinase 1 (MAP2K1, Homo sapiens, UniProt Q02750); binding, competition with immobilised ligand): 1.9 µM

CC[C@H](C)[C@H](NC(=O)[C@H](CCCNC(=N)N)NC(=O)[C@H](CCCCN)NC(=O)[C@@H](NC(=O)[C@H](C)NC(=O)[C@H](CCCNC(=N)N)NC(=O)[C@H](CCC(N)=O)NC(=O)[C@H](CO)NC(=O)[C@H](CCCCN)NC(=O)[C@H](CC(N)=O)NC(=O)[C@@H](N)CCCNC(=N)N)[C@@H](C)O)C(=O)N[C@@H](CO)C(=O)N[C@@H](Cc1c[nH]cn1)C(=O)N[C@@H](CCSC)C(=O)N1CCC[C@H]1C(=O)N[C@@H](CO)C(=O)N[C@@H](CCCNC(=N)N)C(=O)N1CCC[C@H]1C(=O)N[C@@H](CCC(=O)O)C(=O)N[C@@H](CC(C)C)C(=O)N[C@@H](CO)C(=O)N[C@@H](C)C(=O)N[C@H](C(=O)N[C@@H](C)C(=O)N[C@H](C(=O)N[C@@H](CC(=O)O)C(=O)N[C@@H](CC(C)C)C(=O)N[C@@H](CCCNC(=N)N)C(=O)N[C@@H](CCCCN)C(=O)N[C@@H](CC(=O)O)C(=O)N[C@@H](CCCCN)C(=O)N[C@@H](C)C(=O)N[C@@H](CCCCN)C(=O)N[C@@H](CO)C(=O)N[C@@H](CSC/C=C(\C)CC/C=C(\C)CCC=C(C)C)C(=O)OC)[C@@H](C)O)C(C)C
Kd (YWHAZ; cell-free assay, FP; pH 7.5): 7.74 µM

CC(=O)N[C@@H](CCCNC(=N)N)C(=O)N[C@H](C(=O)N1CCC[C@H]1C(=O)N[C@@H](COP(=O)(O)O)C(=O)N[C@@H](CC(C)C)C(=O)N1CCC[C@H]1C(=O)N[C@H](C)C(=O)N1CCC[C@H]1C(c1ccccc1)c1ccccc1)[C@@H](C)O
Kd (YWHAZ; isothermal titration calorimetry): 4.95 ± 1.16 µM

CSCC[C@H](NC=O)C(=O)N[C@@H](CCCNC(=N)N)C(=O)N[C@H](C(=O)NCC(=O)N[C@@H](CC(N)=O)C(=O)N[C@@H](C)C(=O)N[C@@H](CC(N)=O)C(=O)NCC(=O)NCC(=O)N[C@@H](CCCCNC(=S)Nc1ccc2c(c1)C(=O)OC21c2ccc(O)cc2Oc2cc(O)ccc21)C(=O)O)[C@@H](C)O
Kd (Uncharacterized protein YejA (yejA, Escherichia coli, UniProt P33913, T508A); binding, fluorescence polarisation; YejA variant T490A): 85.5 ± 19.7 µM

A few entries again:
CC[C@H](C)[C@@H]1NC(=O)[C@H](C)NC(=O)[C@H](CCCCN)NC(=O)[C@@H](NC(=O)CN)CSSC[C@@H]2NC(=O)CNC(=O)[C@H](C)NC(=O)[C@H](CC(C)C)NC(=O)[C@@H]3CSSC[C@@H](C(=O)NCC(=O)O)NC(=O)[C@H](Cc4ccccc4)NC(=O)CNC(=O)[C@H](CC(N)=O)NC(=O)[C@@H]4CCCN4C(=O)CNC(=O)[C@H](CSSC[C@H](NC(=O)[C@H](CCCNC(=N)N)NC(=O)[C@H](CCC(N)=O)NC(=O)[C@@H]4CCCN4C(=O)[C@H](CCCCN)NC(=O)[C@H](CC(C)C)NC(=O)[C@H](CC(C)C)NC(=O)[C@H](CC(N)=O)NC1=O)C(=O)N[C@@H](CCCCN)C(=O)N[C@@H](CCC(N)=O)C(=O)N[C@@H](CC(=O)O)C(=O)N[C@@H](CO)C(=O)N[C@@H](CC(=O)O)C(=O)N3)NC(=O)[C@H](C(C)C)NC2=O
Kd (LRP6 E1 domain; binding, SPR; pH 7.5): 0.366 µM

CC[C@H](C)[C@H](NC(=O)[C@H](CC(=O)O)NC(=O)[C@H](CCCNC(=N)N)NC(=O)[C@H](C)NC(=O)c1ccc2c(c1)C(=O)OC21c2ccc(N(C)C)cc2Oc2cc(N(C)C)ccc21)C(=O)N[C@@H](Cc1c[nH]cn1)C(=O)N[C@@H](Cc1c[nH]cn1)C(=O)N[C@H](C(=O)N[C@@H](CC(=O)O)C(=O)N[C@@H](Cc1ccc(O)cc1)C(=O)N[C@@H](Cc1ccc(OP(=O)(O)O)cc1)C(=O)N[C@@H](CCCCN)C(=O)N[C@@H](CCCCN)C(=O)N[C@H](C(=O)N[C@H](C(=O)N[C@@H](CC(N)=O)C(=O)NCC(=O)N[C@@H](CCCNC(=N)N)C(=O)N[C@@H](CC(=O)O)C(=O)O)[C@@H](C)O)[C@@H](C)O)[C@@H](C)CC
Kd (Adapter molecule crk, SH2 domain (Homo sapiens, UniProt P46108); binding): 1.11 µM

O=C(N[C@@H]1c2ccccc2C[C@H]1N1CCCC1)c1ccc(-c2ccnc3[nH]ccc23)nc1
Kd (Dual specificity mitogen-activated protein kinase kinase 1 (MAP2K1, Homo sapiens, UniProt Q02750); binding, competition with immobilised ligand): 1.9 µM
